Results collected from several papers.
Each numbered part is a random draw from the data of one study; scales do not carry over between parts. “And” joins repeats or separate records; there may be more than shown.

Set 1 — technique: PRP chromatography; notes: linear fit, 1 mL
Structure (SMILES)	logD 1,9-decadiene/water [log units]
CC(C)C[C@@H]1NC(=O)[C@H](CC(C)C)NC(=O)[C@@H](CC(C)C)NC(=O)[C@H](C)NC(=O)[C@@H](Cc2cscn2)NC(=O)[C@@H](CC(C)C)NC(=O)[C@H](C)NC1=O	-1.21
CC(C)C[C@@H]1NC(=O)[C@H](CC(C)C)NC(=O)[C@@H](C(C)C)NC(=O)[C@H](C(C)C)NC(=O)[C@H](C(C)C)NC(=O)[C@H](C)NC(=O)[C@H](C)NC1=O	-1.84
CC(C)C[C@@H]1NC(=O)[C@H](C)NC(=O)[C@@H](C(C)C)NC(=O)[C@H](C(C)C)NC(=O)[C@H](CC(C)C)NC(=O)[C@@H](CC(C)C)NC(=O)[C@H](CC(C)C)NC1=O	0.0587
CC(C)C[C@@H]1NC(=O)[C@H](C)NC(=O)[C@@H](CC(C)C)NC(=O)[C@@H](CC(C)C)NC(=O)[C@H](C)NC(=O)[C@H](CC(C)C)NC(=O)[C@@H](CC(C)C)NC1=O	0.346
CC(C)C[C@@H]1NC(=O)[C@H](CC(C)C)NC(=O)[C@H](CC(C)C)NC(=O)[C@H](C(C)C)NC(=O)[C@@H](CCC(=O)N2CCCC2)NC(=O)[C@H](Cc2cscn2)NC(=O)[C@H](C)NC1=O	-4.41
CC(C)C[C@@H]1NC(=O)[C@H](CC(C)C)NC(=O)[C@H](CC(C)C)NC(=O)[C@H](C(C)C)NC(=O)[C@@H](CCC(=O)N2CCCC2)NC(=O)[C@H](C)NC(=O)[C@H](C)NC1=O	-2.32

Set 2 — cell line: HaCaT; concentration: 100 µM; time: 36 h
SMILES	viability [%]
C=C1CCN([C@H](C)[C@](O)(Cn2cncn2)c2ccc(F)cc2F)CC1	41.7
NS(=O)(=O)c1cc2c(cc1C(F)(F)F)NC(Cc1ccccc1)NS2(=O)=O (stereo not shown)	47.4
O=C(O)c1cc(/N=N/c2ccc(O)c(C(=O)O)c2)ccc1O	93.7
O=C(c1cc(Cc2n[nH]c(=O)c3ccccc23)ccc1F)N1CCN(C(=O)C2CC2)CC1	88
CC(C)(C)NCC(O)COc1cccc2c1CCC(=O)N2 (stereo not shown)	88.7
Cc1onc(-c2ccccc2)c1C(=O)N[C@@H]1C(=O)N2[C@@H]1SC(C)(C)[C@@H]2C(=O)O	96.6
CC(C)(C)NC(=O)[C@H]1CC[C@H]2[C@@H]3CC[C@H]4NC(=O)C=C[C@]4(C)[C@H]3CC[C@]12C	98.7
O=C(O)CCC(=O)c1ccc(-c2ccccc2)cc1	85
C[C@H](CCC(=O)O)[C@H]1CC[C@H]2[C@@H]3[C@H](O)C[C@@H]4C[C@H](O)CC[C@]4(C)[C@H]3C[C@H](O)[C@]12C	100

Set 3 — cell line: normal organoid sample D; technique: CellTiter-Glo; host: human; matrix: normal-adjacent epithelium; concentration: 1 µM; baseline: DMSO
SMILES	viability
CN1CCN(c2cnc3c(C4CCN(C(=O)c5ccc(OC(F)(F)F)cc5N)CC4)ncnc3c2)CC1	100% and 94.7%
Cc1noc([C@H]2C[C@@H](c3ccc(C(F)(F)F)cc3)CN(C(=O)N3CCS(=O)(=O)C3)C2)n1	98.2% and 84.1%
C[C@@H](c1cccc(C#N)c1)n1cc(Cl)cc(C(N)=O)c1=N	109% and 140%
Cn1cnc2c(F)c(Nc3ccc(Br)cc3Cl)c(C(=O)NOCCO)cc21	90.7% and 93.9%
Cn1cncc1[C@@](O)(COc1ccc(C#N)cc1-c1ccc(OC(F)(F)F)cc1)c1ccc(C#N)cc1	109% and 78.4%
CN1CCN(Cc2ccc(Nc3ncc(Cl)c(Nc4ccccc4S(=O)(=O)N(C)C)n3)cc2)CC1	2.8% and 2.1%

Set 4 — read-out: enzyme activity; mode: inhibitor; concentration: 0.5 µM; baseline: control
Target: Proto-oncogene tyrosine-protein kinase ROS (ROS1, Homo sapiens, UniProt P08922)
Chain of UniProt P08922 (whole entry, looked up): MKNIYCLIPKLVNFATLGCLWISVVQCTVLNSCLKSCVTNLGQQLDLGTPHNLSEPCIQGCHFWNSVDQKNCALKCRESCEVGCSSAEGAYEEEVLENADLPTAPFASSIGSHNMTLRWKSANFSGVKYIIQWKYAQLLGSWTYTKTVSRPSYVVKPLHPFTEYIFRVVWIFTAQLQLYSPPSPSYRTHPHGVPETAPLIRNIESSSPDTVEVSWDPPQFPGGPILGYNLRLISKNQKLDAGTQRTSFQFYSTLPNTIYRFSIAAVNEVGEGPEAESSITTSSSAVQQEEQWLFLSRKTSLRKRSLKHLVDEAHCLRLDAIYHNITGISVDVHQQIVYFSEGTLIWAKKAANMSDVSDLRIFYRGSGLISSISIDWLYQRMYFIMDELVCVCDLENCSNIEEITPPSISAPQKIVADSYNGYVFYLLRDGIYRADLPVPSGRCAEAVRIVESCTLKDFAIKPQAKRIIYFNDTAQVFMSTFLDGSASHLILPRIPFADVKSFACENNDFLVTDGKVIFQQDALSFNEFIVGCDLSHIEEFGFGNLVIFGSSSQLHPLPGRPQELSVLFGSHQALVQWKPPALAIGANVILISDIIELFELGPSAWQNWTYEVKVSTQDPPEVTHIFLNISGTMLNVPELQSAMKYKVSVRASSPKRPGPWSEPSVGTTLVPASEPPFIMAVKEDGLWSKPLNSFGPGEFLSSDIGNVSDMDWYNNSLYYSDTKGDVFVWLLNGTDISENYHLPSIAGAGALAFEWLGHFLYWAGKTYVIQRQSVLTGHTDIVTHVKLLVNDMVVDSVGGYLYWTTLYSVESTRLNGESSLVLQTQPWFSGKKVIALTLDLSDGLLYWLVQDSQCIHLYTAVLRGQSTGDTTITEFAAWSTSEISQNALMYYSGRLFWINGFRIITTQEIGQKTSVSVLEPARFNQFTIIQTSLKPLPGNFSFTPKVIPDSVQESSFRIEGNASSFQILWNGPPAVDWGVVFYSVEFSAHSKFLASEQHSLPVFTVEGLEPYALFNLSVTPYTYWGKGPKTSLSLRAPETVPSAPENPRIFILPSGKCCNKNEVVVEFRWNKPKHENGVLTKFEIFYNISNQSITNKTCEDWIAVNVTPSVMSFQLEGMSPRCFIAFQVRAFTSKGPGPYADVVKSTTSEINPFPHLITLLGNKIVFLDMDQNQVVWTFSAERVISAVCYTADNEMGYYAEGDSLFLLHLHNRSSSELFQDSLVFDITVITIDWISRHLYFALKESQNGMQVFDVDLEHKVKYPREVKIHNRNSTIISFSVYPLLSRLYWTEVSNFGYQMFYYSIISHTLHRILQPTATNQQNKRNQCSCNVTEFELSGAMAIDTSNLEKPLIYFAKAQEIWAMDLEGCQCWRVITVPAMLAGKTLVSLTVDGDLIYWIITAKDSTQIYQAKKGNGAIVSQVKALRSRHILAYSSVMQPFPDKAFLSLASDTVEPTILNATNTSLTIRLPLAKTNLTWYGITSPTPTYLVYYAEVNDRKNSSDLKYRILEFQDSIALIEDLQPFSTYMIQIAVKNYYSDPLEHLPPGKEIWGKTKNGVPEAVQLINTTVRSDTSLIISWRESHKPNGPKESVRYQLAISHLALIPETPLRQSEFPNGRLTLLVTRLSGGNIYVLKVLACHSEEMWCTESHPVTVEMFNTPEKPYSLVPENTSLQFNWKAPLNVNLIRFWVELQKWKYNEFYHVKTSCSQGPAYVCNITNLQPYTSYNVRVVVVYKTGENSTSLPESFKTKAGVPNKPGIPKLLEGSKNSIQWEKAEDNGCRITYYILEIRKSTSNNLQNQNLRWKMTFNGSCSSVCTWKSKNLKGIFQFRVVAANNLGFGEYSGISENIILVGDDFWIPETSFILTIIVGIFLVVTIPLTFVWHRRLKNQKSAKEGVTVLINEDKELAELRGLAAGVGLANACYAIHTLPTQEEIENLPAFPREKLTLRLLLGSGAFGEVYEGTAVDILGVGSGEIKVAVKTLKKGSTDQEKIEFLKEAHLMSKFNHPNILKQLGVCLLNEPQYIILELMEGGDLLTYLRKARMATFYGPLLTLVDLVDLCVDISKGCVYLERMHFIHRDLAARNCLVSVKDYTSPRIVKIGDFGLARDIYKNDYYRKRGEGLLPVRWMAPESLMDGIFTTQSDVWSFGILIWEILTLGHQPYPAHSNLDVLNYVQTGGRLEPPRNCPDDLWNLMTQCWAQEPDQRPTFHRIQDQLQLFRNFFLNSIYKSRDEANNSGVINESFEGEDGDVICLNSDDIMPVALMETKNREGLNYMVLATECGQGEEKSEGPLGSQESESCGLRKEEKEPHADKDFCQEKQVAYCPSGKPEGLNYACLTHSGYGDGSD
Compound	remaining activity [%]
CC(C)N(CCC(=O)c1ccc2ccccc2c1)Cc1ccccc1	113
O=C1Cc2c([nH]c3ccc(Br)cc23)-c2ccccc2N1	83.6
NC(=O)c1ccc(-c2nc(-c3ccc4c(c3)OCCO4)c(-c3ccccn3)[nH]2)cc1	113
Cc1cc(Nc2cc(N3CCN(C)CC3)nc(Sc3ccc(NC(=O)C4CC4)cc3)n2)[nH]n1	30.2
CCCCc1c(-c2ccc(O)cc2)[nH]c2nccnc12	26.3
O=Nc1c(-c2c(O)[nH]c3cc(Br)ccc23)[nH]c2ccccc12	82
O=C1NC(=O)c2c1c1c3ccccc3[nH]c1n1cncc21	77
Cc1ccc(S(=O)(=O)/C=C/C#N)cc1	94.1
N#CC(c1ccnc(NCCc2cccnc2)n1)c1nc2ccccc2s1 (stereo not shown)	92.7
Nc1nc(Nc2ccc(S(N)(=O)=O)cc2)nn1C(=S)Nc1c(F)cccc1F	1.68
FC(F)(F)c1ccc(/C=C/c2nc(COc3ccc(CCCCn4ccnn4)cc3)co2)cc1	93.3
O=C1c2ccccc2-c2nc3nnnn3nc21	91.1
Clc1ccc(Nc2nnc(Cc3ccncc3)c3ccccc23)cc1	94.7
c1ccc2c(-c3ccncc3)c[nH]c2c1	81.6
COc1cccc(-c2cc(=O)c3ccccc3o2)c1N	97.5
O=C(c1cc2cc(O)ccc2[nH]1)c1cc2cc(O)ccc2[nH]1	105
CC(C)n1cnc2c(Nc3cccc(Cl)c3)nc(NCCO)nc21	102
CCCNC(=O)Nc1ccc(Oc2ncnc3cc(OC)c(OC)cc23)cc1Cl	97.6
CC(C)(C)c1nc2c3cc[nH]c(=O)c3c3cc(F)ccc3c2[nH]1	31.2
COc1ccc2c(c1)c(C1=C(c3c[nH]c4ccccc34)C(=O)NC1=O)cn2CCCN(C)C	52.4
c1cc(-c2cnn3cc(-c4ccc(OCCN5CCCCC5)cc4)cnc23)ccn1	93.6
O=C1Nc2ccc(Br)cc2/C1=C/c1cc2c([nH]1)CCCC2	98.6
N#C/C(=C(/N)SC1C=CC=CC1)c1cccc(C(O)c2ccncc2)c1 (stereo not shown)	95.2
CCCCc1c(-c2ccc(OC)cc2)[nH]c2nccnc12	37.5
O=C1NC(=O)/C(=C/c2ccc3c(c2)OC(F)(F)O3)S1	88.5

Set 5 — technique: Incucyte 3D growth; concentration: 30 µM; reading: higher = more growth
SMILES: CC(C)(C(=O)O)[C@H](NC(=O)Cc1cccc(I)c1)c1ccc2oc(=O)[nH]c2c1
cell line	conditions	spheroid area
PC-9	36 h	3.5e+08 a.u. and 3.39e+08 a.u. and 3.4e+08 a.u. and 3.59e+08 a.u. and 3.46e+08 a.u. and 3.69e+08 a.u.
IPC-298	12 h	2.2e+07 a.u. and 1.56e+07 a.u. and 2.12e+07 a.u. and 1.72e+07 a.u. and 1.98e+07 a.u. and 1.63e+07 a.u.
A375	210 h	1.08e+08 a.u. and 1.24e+08 a.u. and 1.44e+08 a.u. and 1.27e+08 a.u. and 1.26e+08 a.u.
PC-9	204 h	1.68e+09 a.u. and 1.66e+09 a.u. and 1.76e+09 a.u. and 1.73e+09 a.u. and 1.78e+09 a.u. and 1.75e+09 a.u.
NCI-H358	84 h	3.69e+06 a.u. and 3.72e+06 a.u. and 5.04e+06 a.u. and 3.46e+06 a.u. and 4.62e+06 a.u. and 3.79e+06 a.u.
MEL-JUSO	510.52 h	2.62e+07 a.u. and 5.75e+07 a.u. and 2.78e+07 a.u. and 2.97e+07 a.u. and 8.04e+07 a.u. and 1.63e+07 a.u.

Some of these lines once more (set 1):
Structure (SMILES)	logD 1,9-decadiene/water [log units]
CC(C)C[C@@H]1NC(=O)[C@H](C)NC(=O)[C@@H](CC(C)C)NC(=O)[C@@H](CC(C)C)NC(=O)[C@H](C)NC(=O)[C@H](CC(C)C)NC(=O)[C@@H](CC(C)C)NC1=O	0.346
CC(C)C[C@@H]1NC(=O)[C@H](CC(C)C)NC(=O)[C@@H](C(C)C)NC(=O)[C@H](C(C)C)NC(=O)[C@H](C(C)C)NC(=O)[C@H](C)NC(=O)[C@H](C)NC1=O	-1.84
CC(C)C[C@@H]1NC(=O)[C@H](CC(C)C)NC(=O)[C@@H](CC(C)C)NC(=O)[C@H](C)NC(=O)[C@@H](Cc2cscn2)NC(=O)[C@@H](CC(C)C)NC(=O)[C@H](C)NC1=O	-1.21
CC(C)C[C@@H]1NC(=O)[C@H](CC(C)C)NC(=O)[C@H](CC(C)C)NC(=O)[C@H](C(C)C)NC(=O)[C@@H](CCC(=O)N2CCCC2)NC(=O)[C@H](Cc2cscn2)NC(=O)[C@H](C)NC1=O	-4.41
